Results collected from several papers.
Compare with care: the assays were run in different laboratories. Values joined by “and” are separate records of one study, mostly repeats; a detail may differ.

SMILES	test	system	conditions	quantity	result
N#Cc1ccc2c(c1)[C@H]1CCCN(C(=O)c3ccc4[nH]cnc4c3)[C@H]1C2	–	human, plasma	oral, 240 mg once daily, day 28 steady state	CL/F steady state	82.2 mL/min
CC1(COc2ccc3c(c2)ncn3-c2ccc3cccc(N4CCC(N)CC4)c3n2)COC1	–	human patients, recurrent/progressive HGG or DIPG, serum	oral, 130 mg/m^2, day 1, median	CL/F	48.7 L/h/m²
Cn1cc(-c2cn3nccc3c(-c3cnn([C@]4(CC#N)C[C@@H](C#N)C4)c3)n2)cn1	–	healthy human fed	200 mg twice daily, day 10	CL/F	99.5 L/h
CCn1cc(C(=O)N2CCOCC2)c(=O)c2cc(NC3Cc4ccccc4C3)cnc21	–	human, fed	oral suspension, 1200 mg/day twice daily, day 8, arithmetic mean	CL/F	58.8 L/h
Cn1ncnc1[C@H]1c2n[nH]c(=O)c3cc(F)cc(c23)N[C@@H]1c1ccc(F)cc1	–	human patients, plasma	oral, 600 µg/m2 twice daily day 1, day 5, dose level DL3, median, together with: temozolomide 20 mg/m2 daily days 2-6	CL/F at steady state	4.5 L/h/m2
C[C@@H](Oc1ccc(S(C)(=O)=O)cc1C(=O)N1C[C@@H]2C[C@]2(c2cc(C(F)(F)F)on2)C1)C(F)(F)F	–	healthy young humans	oral, 10 mg single dose	CL/F	5.14 L/h
Cn1cncc1[C@@](N)(c1ccc(Cl)cc1)c1ccc2c(c1)c(-c1cccc(Cl)c1)cc(=O)n2C	–	human patients	oral, 200 mg/m2, first dose, cycle 1, median	CL/F	643 mL/min/m2
Cc1ncnc2c1ccn2[C@@H]1C[C@H](Oc2cc(C(F)F)c(F)c3c2CNCC3)[C@@H](O)[C@H]1O	–	human	oral, 1 mg twice daily	CL/F	10.1 L/h and 4.97 L/h
CC(C)Nc1nc2cc(Cl)c(Cl)cc2n1[C@H]1O[C@@H](CO)[C@H](O)[C@@H]1O	population PK model	human	oral, dose not given, together with: strong CYP3A4 inhibitors	CL/F reduction	29%

For quick reference, copied from above:
SMILES	test	system	conditions	quantity	result
Cc1ncnc2c1ccn2[C@@H]1C[C@H](Oc2cc(C(F)F)c(F)c3c2CNCC3)[C@@H](O)[C@H]1O	–	human	oral, 1 mg twice daily	CL/F	10.1 L/h and 4.97 L/h
